Experimental data collected from several papers.
Compare with care: the assays were run in different laboratories.
riboswitch RNA SAM-I metF-H2: riboswitch RNA SAM-I metF-H2 (Thermoanaerobacter tengcongensis)
T1: riboswitch RNA (Mesoplasma florum); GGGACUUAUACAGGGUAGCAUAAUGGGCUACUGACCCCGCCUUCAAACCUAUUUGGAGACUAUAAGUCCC
T2: riboswitch RNA SAM-I metF-H2 (Thermoanaerobacter tengcongensis); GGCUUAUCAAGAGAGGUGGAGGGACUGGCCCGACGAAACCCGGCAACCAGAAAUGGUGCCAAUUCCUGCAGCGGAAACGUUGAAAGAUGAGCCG
T3: riboswitch RNA G16C (Synechocystis sp. PCC 6803); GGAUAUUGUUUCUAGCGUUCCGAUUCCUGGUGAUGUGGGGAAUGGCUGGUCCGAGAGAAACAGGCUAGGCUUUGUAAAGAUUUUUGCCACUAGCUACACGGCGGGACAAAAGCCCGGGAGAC
T4: riboswitch RNA SAM-I metF-H2 (Thermoanaerobacter tengcongensis); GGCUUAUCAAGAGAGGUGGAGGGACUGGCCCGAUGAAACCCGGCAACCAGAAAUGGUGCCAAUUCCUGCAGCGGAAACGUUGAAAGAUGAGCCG
T5: riboswitch RNA, extra G-C pair, UUCG loop; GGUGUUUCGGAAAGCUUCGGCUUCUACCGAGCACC
T6: riboswitch RNA A38C/U39C (Bacillus); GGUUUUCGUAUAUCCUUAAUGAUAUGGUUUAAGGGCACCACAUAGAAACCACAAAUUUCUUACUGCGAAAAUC
T7: riboswitch RNA (Paenibacillus durus); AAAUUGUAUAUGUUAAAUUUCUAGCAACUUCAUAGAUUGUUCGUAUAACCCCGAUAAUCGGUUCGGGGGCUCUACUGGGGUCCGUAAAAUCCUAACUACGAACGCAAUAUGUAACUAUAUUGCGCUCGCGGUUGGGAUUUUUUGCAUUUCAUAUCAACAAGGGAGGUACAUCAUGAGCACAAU

| target | assay | conditions | binding | SMILES |
| --- | --- | --- | --- | --- |
| T1, riboswitch RNA (Mesoplasma florum) | NMR |  | no binding | c1c[nH]cn1 |
| T2, riboswitch RNA SAM-I metF-H2 (Thermoanaerobacter tengcongensis) | X-ray crystallography | together with: Mg2+, K+ | binds | Nc1ncnc2c1ncn2[C@@H]1O[C@H](CSCC[C@H](N)C(=O)O)[C@@H](O)[C@H]1O |
| T3, riboswitch RNA G16C (Synechocystis sp. PCC 6803) | in-line probing | 316 µM | no binding | N=C(N)N |
| T4, riboswitch RNA SAM-I metF-H2 (Thermoanaerobacter tengcongensis) | ITC | apparent | binds | C[S+](CC[C@H](N)C(=O)O)C[C@H]1O[C@@H](n2cnc3c(N)ncnc32)[C@H](O)[C@@H]1O (stereo partly shown) |
| T5, riboswitch RNA, extra G-C pair, UUCG loop | solution NMR |  | binds | NC[C@H]1O[C@H](O[C@H]2[C@H](O)[C@@H](O[C@H]3O[C@H](CO)[C@@H](O)[C@H](N)[C@H]3O)[C@H](N)C[C@@H]2N)[C@H](N)C[C@@H]1O |
| T1, riboswitch RNA (Mesoplasma florum) | NMR |  | no binding | O=c1[nH]cnc2c1ncn2[C@H]1C[C@H](O)[C@@H](CO)O1 |
| T6, riboswitch RNA A38C/U39C (Bacillus) | ITC | KCl 50 mM | binds | Nc1nc2c(ncn2[C@H]2C[C@H](O)[C@@H](CO)O2)c(=O)[nH]1 |
| T1, riboswitch RNA (Mesoplasma florum) | NMR |  | no binding | NC(=O)c1ccc[n+]([C@@H]2O[C@H](COP(=O)([O-])OP(=O)(O)OC[C@H]3O[C@@H](n4cnc5c(N)ncnc54)[C@H](O)[C@@H]3O)[C@@H](O)[C@H]2O)c1 |
| T2, riboswitch RNA SAM-I metF-H2 (Thermoanaerobacter tengcongensis) | X-ray crystallography | together with: Mg2+ | binds | Nc1ncnc2c1ncn2[C@@H]1O[C@H](C[C@@H](N)CC[C@H](N)C(=O)O)[C@@H](O)[C@H]1O |
| T7, riboswitch RNA (Paenibacillus durus) | transcription termination, function, single-round transcription termination | together with: RNA polymerase | no binding | O=c1[nH]cnc2nc[nH]c12 |

Some of these lines once more:
| target | assay | conditions | binding | SMILES |
| --- | --- | --- | --- | --- |
| T5, riboswitch RNA, extra G-C pair, UUCG loop | solution NMR |  | binds | NC[C@H]1O[C@H](O[C@H]2[C@H](O)[C@@H](O[C@H]3O[C@H](CO)[C@@H](O)[C@H](N)[C@H]3O)[C@H](N)C[C@@H]2N)[C@H](N)C[C@@H]1O |
